Measured values from different studies.
Lines come from different studies, so protocols differ. ± marks the error that the study gave.

| SMILES | target or system | assay | system | setting | how to read | measurement | value |
| --- | --- | --- | --- | --- | --- | --- | --- |
| O=C(O)CCc1cc(O)cc(O)c1 | – | – | human plasma | median | – | plasma concentration | 0.899 µM |
| C#Cc1cccc(Nc2ncnc3cc(OC)c(OCCCCCCC(=O)NO)cc23)c1 | OCI-Ly1 | – | – | 0.1 µM, 120 h | – | viability | 90.7% |
| C[C@H](NC(=O)/C(C#N)=C/c1cccc(Br)n1)c1ccccc1 | – | LC-MS/MS | patients, plasma | oral, 2 mg/kg, cycle 1 day 1 | – | AUC(all) | 0.08 µg·h/mL |
| Cc1c2oc3c(C)ccc(C(=O)N[C@@H]4C(=O)N[C@H](C(C)C)C(=O)N5CCC[C@H]5C(=O)N(C)CC(=O)N(C)[C@@H](C(C)C)C(=O)O[C@@H]4C)c3nc-2c(C(=O)N[C@@H]2C(=O)N[C@H](C(C)C)C(=O)N3CCC[C@H]3C(=O)N(C)CC(=O)N(C)[C@@H](C(C)C)C(=O)O[C@@H]2C)c(N)c1=O | – | LC-MS | children with cancer, plasma | dose not given, 26 h | – | median plasma concentration | 1.9 µg/L |
| CN(C)c1cc(NC(=O)CNC(C)(C)C)c(O)c2c1C[C@H]1C[C@H]3[C@H](N(C)C)C(O)=C(C(N)=O)C(=O)[C@@]3(O)C(O)=C1C2=O | – | starch gel membrane permeability | Gram-negative envelope surrogate | 200 µM, 45 min, pH 7.4 | – | amount permeated | 1.96 nmol |
| CC1=C(Cc2cn(CCO)nn2)C(=O)c2ccccc2C1=O | – | square wave voltammetry | DMSO | vs Ag/AgCl (3 M KCl), with: 0.1 M n-Bu4NPF6 | – | half-wave potential E1/2 (first) | -0.61 V |
| CN(C(=O)n1cnc(-c2cccnc2)c1)C1CCCCC1 | – | – | Wistar rat, cerebellum | oral, 10 mg/kg of BIA 10-2474, 1 h, single dose | – | concentration | 64.5 ± 13.4 ng/g |
| Cc1nc(-c2ccc(OCC(C)C)c(C#N)c2)sc1C(=O)O | – | – | human, plasma | oral, 40 mg once daily, with: verinurad 10 mg | – | AUC(0-24) | 4.9 µg·h/mL |
| CCOc1c([C@H](C)n2nc(C)c3c(N)ncnc32)cc(Cl)c(F)c1[C@@H]1CNC(=O)C1 | – | – | patients with indolent lymphoma, plasma | oral, 30 mg, day 15, monotherapy | – | half-life | 11.7 ± 5 h |
| CCc1cc(C(=O)NC)c2nccc(N3CCc4c(cc(Cn5ccnc5)cc4-c4cn(C)nc4C(F)(F)F)C3=O)c2c1 | – | refers to: UREA | Sprague Dawley rat | oral, 100 mg/kg once daily, 7 days | relative to: vehicle | change in clinical chemistry or haematology parameter | 0.6% |
| CNC(=O)c1ccc(-c2cnc3ncc(Cc4ccc5ncccc5c4)n3n2)cc1F | – | refers to: Hypoalbuminemia, all grades | cancer patients | oral, dose not given, dose escalation, any causality | – | patients with adverse event | 24% |
| Cc1ccc(Sc2ccccc2N2CCNCC2)c(C)c1 | – | refers to: ALT increased | healthy adult men | oral, 20 mg daily, 12 days | – | participants with TEAE | 16.7% |
| NC[C@@]1(CC(=O)O)[C@@H]2CC[C@H]3C[C@@H]2[C@@H]1C3 | – | – | human, moderate renal impairment, plasma | geometric mean | – | unbound apparent clearance | 5.7 L/h |
| O=C(Nc1nc2cccc(-c3ccc(CN4CCS(=O)(=O)CC4)cc3)n2n1)C1CC1 | – | refers to: paraesthesia | human rheumatoid arthritis patients | oral, 300 mg once daily, 4 weeks, regardless of relatedness | – | treatment-emergent adverse events | 0% |
| OCc1nc2ccc(NCc3ccc(C(F)(F)F)cc3)cc2[nH]1 | – | – | male Balb/c mice, heart | oral, 10 mg/kg, 6 h | relative to: tissue over plasma | tissue/plasma ratio | 3.27 ± 0.2 |
| Cc1cc(Nc2cccc(Cl)c2)nc(-n2nc(C)cc2C)n1 | – | – | mouse, processed plasma samples | 10 °C | time stable | autosampler stability | ≥ 36 h |
| CC(C)c1nc(CN(C)C(=O)N[C@@H](CCN2CCOCC2)C(=O)N[C@H](CC[C@H](Cc2ccccc2)NC(=O)OCc2cncs2)Cc2ccccc2)cs1 | – | refers to: Photophobia | human | oral, 150 mg | – | drug-related TEAE incidence | 0% |
| C=CC(=O)NC1CCN(c2ncc3ncnc(Nc4ccc(Oc5ccc6c(c5)ncn6C)c(C)c4)c3n2)CC1 | – | – | male patients | oral, dose not given, on-treatment adverse events | – | patients with abnormal dreams | 0% |
| O=Cc1cc2c(cc1F)C(=O)N(C1CCC(=O)NC1=O)C2 (stereo not shown) | – | – | cynomolgus monkey, male | oral, 0.3 mg/kg parent drug, 2 h | – | plasma concentration | 0.49 ng/mL |
| O=C(O)CCC(=O)O.[2H]C([2H])([2H])Oc1cc(C)c2[nH]ccc2c1CN1CC[C@@H](C2CC2)C[C@H]1c1ccc(C(=O)O)cc1 | – | – | healthy Chinese subjects | 200 mg, single ascending dose | – | TEAE decreased neutrophil | 0% |
| CCCc1cc(C)[nH]c(=O)c1CNC(=O)c1cc(-c2ccnc(N3CCN(C)CC3)c2)cc2c1cnn2C(C)C | OCI-Ly1 | – | – | 0.1 µM, 120 h | – | viability | 92.9% |
| O=c1cc(-c2ccccc2)oc2ccccc12 | – | – | human plasma | mean, both sexes | – | plasma concentration | 1.65 µM |

A few entries again:
| SMILES | target or system | assay | system | setting | how to read | measurement | value |
| --- | --- | --- | --- | --- | --- | --- | --- |
| O=C(Nc1nc2cccc(-c3ccc(CN4CCS(=O)(=O)CC4)cc3)n2n1)C1CC1 | – | refers to: paraesthesia | human rheumatoid arthritis patients | oral, 300 mg once daily, 4 weeks, regardless of relatedness | – | treatment-emergent adverse events | 0% |
| OCc1nc2ccc(NCc3ccc(C(F)(F)F)cc3)cc2[nH]1 | – | – | male Balb/c mice, heart | oral, 10 mg/kg, 6 h | relative to: tissue over plasma | tissue/plasma ratio | 3.27 ± 0.2 |
| Cc1cc(Nc2cccc(Cl)c2)nc(-n2nc(C)cc2C)n1 | – | – | mouse, processed plasma samples | 10 °C | time stable | autosampler stability | ≥ 36 h |
| CC(C)c1nc(CN(C)C(=O)N[C@@H](CCN2CCOCC2)C(=O)N[C@H](CC[C@H](Cc2ccccc2)NC(=O)OCc2cncs2)Cc2ccccc2)cs1 | – | refers to: Photophobia | human | oral, 150 mg | – | drug-related TEAE incidence | 0% |
